Experimental data collected from several papers.
Protocols differ between the studies behind these lines. Numbers after ± are the reported error.

CCN(Cc1ccccc1)C(=O)CCc1nc(CN2CCN(C(=O)Cc3ccc(OC)c(OC)c3)CC2)no1
concentration (rat, brain; intravenous, 1 mg/kg, 2 h): 2 ng/g

COc1ccc(C)cc1NC(=O)OC1CC2CCCC(C1)N2Cc1ccc(CC[18F])cc1 (stereo not drawn)
tumour to tissue ratio (BALB/c mice, EMT6 tumour; 30 min; baseline: tumour over muscle): 1.32

CN(C)C(CNC(=O)Nc1cc(C(F)(F)F)ccc1N1CCOCC1)c1ccncc1 (stereo not drawn)
serum creatinine (mouse, serum; intraperitoneal, 180 mg/kg single dose): 0.2 mg/dL

CC[C@@]1(O)C(=O)OCc2c1cc1n(c2=O)Cc2c-1nc1cc(F)c(C)c3c1c2[C@@H](NC(=O)CO)CC3
Papp (PAMPA; 5 µM, 4 h, pH 7.4): 12.2 ×10⁻⁶ cm/s

CC(C)C[C@@H](NC(=O)[C@@H](CCCCN)NC(=O)CNC(=O)CNC(=O)[C@@H]1CSSC[C@H](N)C(=O)NCC(=O)N[C@@H](CCCNC(=N)N)C(=O)N[C@@H](CCCNC(=N)N)C(=O)N[C@@H](C)C(=O)NCC(=O)NCC(=O)N[C@@H](CO)C(=O)N1)C(=O)N[C@H](C)C(=O)N[C@H](CCCCN)C(=O)N[C@H](CC(C)C)C(=O)N[C@H](C)C(=O)N[C@H](CCCCN)C(=O)N[C@H](CCCCN)C(=O)N[C@H](CC(C)C)C(=O)N[C@H](C)C(=O)N[C@H](CCCCN)C(=O)N[C@H](CC(C)C)C(=O)N[C@H](C)C(=O)N[C@H](CCCCN)C(=O)O
kidney weight (cynomolgus monkey; intravenous, dose not given, weekly, highest dose): increased

CNC(=O)C1CCN(c2ccccc2NC(=O)c2ccc(-c3cc(O)ccc3C)c(C)n2)CC1
microsomal CLint (metabolic stability; human, liver microsomes; 2 µM): 48 µL/min/mg

O=P1(NCCCl)NCCCO1 (stereo not drawn)
MRT(0-t) (rat, plasma; intravenous, 10 mg/kg, added: ketoconazole 40 mg/kg oral 50 min before): 6.54 ± 0.61 h

COc1cc(NC(=O)C(=O)c2c(C)n(Cc3ccc(Cl)cc3)c3ccc(C)cc23)ccn1
clearance (cynomolgus monkey, male, plasma; intravenous, 1 mg/kg): 10.6 mL/min/kg

CC(C)[C@H](NC(=O)CNC(=O)[C@H](CCC(N)=O)NC(=O)[C@H](C)N)C(=O)O
subjects with mild adverse events (human; intravenous infusion, 15 mg/kg/h, 2 h infusion): 16.7%

CCc1c2c(nc3ccc(OC4OC(C(=O)O)C(O)C(O)C4O)cc13)-c1cc3c(c(=O)n1C2)COC(=O)C3(O)CC (stereo not drawn)
Cmax (human patients, plasma; intravenous, 3 mg/m^2 of parent drug): 9 ng/mL

O=c1cc(-c2ccccc2)oc2c(Br)c(O)c(O)c(O)c12
MRT(0-t) (C57BL/6 mouse, plasma; oral, 50 mg/kg, single dose): 4.5 h

CN[C@](C)(C[18F])C(=O)O
tracer uptake (mouse, bone; 30 min, tumour-bearing): 3.5 %ID/g

COC(=O)C[C@H](NC(=O)[C@H](C)NC(=O)[C@@H](NC(=O)[C@H](CC(=O)OC)NC(=O)[C@@H](NC(=O)c1ccc2ccccc2n1)C(C)C)C(C)C)C(=O)COc1c(F)cccc1F
body weight (rat pups; 1 mg/kg, 48 h): 20.9 ± 0.67 g

O=C(O)CC[C@H](NC(=O)O[C@@H](CCCCNC(=O)c1ccc([18F])cc1)C(=O)O)C(=O)O
tissue uptake (mouse, PC-3 PIP/flu xenografts, kidney; 180 min): 0.5 ± 0.18 %ID/g

CC[C@H](C)[C@H](NC(=O)[C@H](CCCNC(=N)N)NC(=O)[C@H](CC(C)C)NC(=O)[C@H](Cc1ccccc1)NC(=O)CNC(=O)CNC(=O)[C@@H](N)Cc1ccc(O)cc1)C(=O)N[C@@H](CCCNC(=N)N)C(=O)N1CCC[C@H]1C(=O)N[C@@H](CCCCN)C(=O)O
plasma half-life ratio (rat plasma; 37 °C; baseline: compound over parent fragment): 6 fold

NC(=S)N/N=C/c1ccc(OCc2ccccc2)cc1
Papp (PAMPA-BBB; pH 7.4): 4.03 ×10⁻⁶ cm/s

CC[C@H](C)[C@@H]1NC(=O)[C@H](Cc2ccccc2)NC(=O)[C@H](CC(=O)O)NC(=O)[C@H](CCCNC(=N)N)NC(=O)[C@H](Cc2ccccc2)NC(=O)[C@H](Cc2ccccc2)NC(=O)[C@@H](NC(=O)[C@H](CO)NC(=O)[C@H](CC(C)C)NC(=O)[C@H](CCCNC(=N)N)NC(=O)[C@H](CCSC)NC(=O)[C@H](C)N)CCCCNC(=O)NCCCC[C@@H](C(=O)N[C@@H](CCC(N)=O)C(=O)N[C@@H](CCCNC(=N)N)C(=O)N[C@@H](CCCCN)C(=O)N[C@@H](CCCCN)C(=O)O)NC1=O
helicity (circular dichroism; 20% TFE in PBS; 200 µM, pH 7.4, 25 °C): 6%

CC(=O)OC1O[C@@H]2O[C@@]3(C)CC[C@H]4[C@H](C)CCC([C@H]1C)[C@@]24OO3 (stereo partly drawn)
dead embryos (Tg(fli1:EGFP) zebrafish embryos; 1.0 µg/mL, up to 48 hpf): 2 count

CC(c1ccc(Br)cc1)N1CCCC(n2c(=O)[nH]c3cc(Cl)c(Cl)cc32)CC1 (stereo not drawn)
concentration (male C57BL/6 mouse, brain; intraperitoneal, 3 mg/kg, 1 h): 463 nM

Cc1ccc(/C=C/C(=O)O)cc1-c1cc2c(cc1C)C(C)(C)CCC2(C)C
Tmax (rat Sprague-Dawley male, plasma; oral, 100 mg/kg, sesame oil): 2 h

CC[C@H](C)C(=O)N1CCC(NC(=O)Nc2ccc(OC(F)(F)F)c(F)c2)CC1
participants with any Serious TEAE (healthy volunteers, both sexes; oral, 8 mg single dose, fed state): 0%

Repeated from above:
CC[C@H](C)[C@@H]1NC(=O)[C@H](Cc2ccccc2)NC(=O)[C@H](CC(=O)O)NC(=O)[C@H](CCCNC(=N)N)NC(=O)[C@H](Cc2ccccc2)NC(=O)[C@H](Cc2ccccc2)NC(=O)[C@@H](NC(=O)[C@H](CO)NC(=O)[C@H](CC(C)C)NC(=O)[C@H](CCCNC(=N)N)NC(=O)[C@H](CCSC)NC(=O)[C@H](C)N)CCCCNC(=O)NCCCC[C@@H](C(=O)N[C@@H](CCC(N)=O)C(=O)N[C@@H](CCCNC(=N)N)C(=O)N[C@@H](CCCCN)C(=O)N[C@@H](CCCCN)C(=O)O)NC1=O
helicity (circular dichroism; 20% TFE in PBS; 200 µM, pH 7.4, 25 °C): 6%

CCN(Cc1ccccc1)C(=O)CCc1nc(CN2CCN(C(=O)Cc3ccc(OC)c(OC)c3)CC2)no1
concentration (rat, brain; intravenous, 1 mg/kg, 2 h): 2 ng/g

COc1cc(NC(=O)C(=O)c2c(C)n(Cc3ccc(Cl)cc3)c3ccc(C)cc23)ccn1
clearance (cynomolgus monkey, male, plasma; intravenous, 1 mg/kg): 10.6 mL/min/kg
